Published values from different studies.
“And” joins repeats or separate records; there may be more than shown. ± marks the error that the study gave.

SMILES | assay | test system | conditions | scale | quantity | result
CC1(C)C(C=C(Cl)Cl)C1C(=O)OC(C#N)c1ccc(F)c(Oc2ccccc2)c1 (centres unmarked) | refers to: CYP3A4 | human, age 6 months, recombinant human CYP3A4 | 0.1 µM |  | enzyme contribution to clearance | 0.84%
CC[C@H](C)[C@H](NC(=O)[C@H](Cc1ccccc1)NC(=O)[C@H](CCC(=O)O)NC(=O)[C@H](CCCNC(=N)N)NC(=O)[C@H](C)NC(=O)[C@H](C)NC(=O)[C@H](CCC(N)=O)NC(=O)[C@H](CCC(=O)O)NC(=O)[C@H](CCC(=O)O)NC(=O)[C@H](CC(C)C)NC(=O)[C@H](Cc1ccc(O)cc1)NC(=O)[C@H](CO)NC(=O)[C@H](CO)NC(=O)[C@@H](NC(=O)[C@H](CC(=O)O)NC(=O)[C@H](CO)NC(=O)[C@@H](NC(=O)[C@H](Cc1ccccc1)NC(=O)[C@@H](NC(=O)CNC(=O)[C@H](CCC(=O)O)NC(=O)[C@H](C)NC(=O)CCc1cnc[nH]1)[C@@H](C)O)[C@@H](C)O)C(C)C)C(=O)N[C@@H](C)C(=O)N[C@@H](Cc1c[nH]c2ccccc12)C(=O)N[C@@H](CC(C)C)C(=O)N[C@H](C(=O)N[C@@H](CCCNC(=N)N)C(=O)NCC(=O)N[C@@H](CCCNC(=N)N)C(=O)N[C@@H](CCCCNC(=O)COCCOCCNC(=O)COCCOCCNC(=O)CC[C@H](NC(=O)CCCCCCCCCCCCCCCCC(=O)O)C(=O)O)C(=O)NCC(=O)NCC(=O)N[C@@H](CO)C(=O)N[C@@H](CCCCNC(=O)[C@H](CCCCNc1c(NCCCCCN(O)C(=O)CCC(=O)NCCCCCN(O)C(=O)CCC(=O)NCCCCCN(O)C(C)=O)c(=O)c1=O)Nc1c(NCCCCCN(O)C(=O)CCC(=O)NCCCCCN(O)C(=O)CCC(=O)NCCCCCN(O)C(C)=O)c(=O)c1=O)C(=O)O)C(C)C [zirconium-89 labelled] | ex vivo gamma counting | Sprague-Dawley rat, male, kidney | intravenous, 1 nmol, 24 h |  | tissue uptake | 7.67 %ID/g and 6.58 %ID/g and 6.68 %ID/g and 6.55 %ID/g and 7.87 %ID/g
COc1cc2c(Oc3ccc4[nH]c(C)cc4c3F)ccnc2cc1OCC1(N)CC1 | refers to: grade 1 or 2 mouth ulcer | paediatric high-risk refractory sarcoma | whole group |  | incidence of adverse event | 2.9%
CNC(=O)c1cc(Oc2ccc(NC(=O)Nc3cc(C(C)(C)C)nn3-c3ccc4ncccc4c3)c(F)c2)ccn1 | pericardial effusion, NCI CTC v3.0 | human patients | oral, all dose levels |  | related SAE | 2%
COc1ccc2nc3cc(Cl)ccc3c(Nc3cc(CN4CCCC4)c(O)c(CN4CCCC4)c3)c2n1 |  | mouse, blood | intraperitoneal, 28 mg/kg |  | red cell distribution width (SD) | 25.2 fL
O=C(Nc1ccccc1)C1CCN(C(=O)Oc2cccnc2)CC1 | Bond-Lader VAS | healthy women | oral, 100 mg | baseline: pre-dose baseline, direction not given | change in Incompetent-Proficient score | 14
Cn1cc(-c2nc(N[C@@H]3CCCC[C@@H]3N)c(F)c3c2C(=O)NC3)cn1 | refers to: Rectal haemorrhage | patients with relapsed or refractory AML | oral, 140 mg once daily |  | hemorrhagic adverse events | 20%
CC(C)(c1ccccc1)c1cc(-n2nc3ccccc3n2)c(O)c(C(C)(C)c2ccccc2)c1 |  | EpiSkin reconstructed epidermis | 36 h |  | mass recovery | 49.1%
O=[N+]([O-])c1ccc2c(c1)S(=O)(=O)C=C2 | flow cytometry | male C57BL/6 mice, spleen | i.p., 20 mg/kg, 8 days | baseline: CD45+ cells | Gr-1+ CD11b+ cells | 1.16%
Cn1c(-c2ccc(C(N)=O)cc2F)nnc1C(C)(C)Oc1c(F)cc(Cl)cc1F |  | human | oral, 3 mg, single ascending dose |  | subjects with any TEAE | 16.7%
CC(C)[C@@H]1NC(=O)CNC(=O)[C@H](CC(N)=O)NC(=O)[C@H](CCCNC(=N)N)NC(=O)[C@H](Cc2ccc(O)cc2)NC(=O)[C@H](C(C)C)NC(=O)[C@@H](NC(=O)[C@@H](NC(=O)[C@H](CC(N)=O)NC(=O)[C@H](Cc2c[nH]c3ccccc23)NC(=O)[C@H](C)NC(=O)[C@H](Cc2ccccc2)NC(=O)CN)C(C)C)CSSC[C@@H](C(=O)N[C@@H](Cc2cnc[nH]2)C(=O)N[C@@H](CCCNC(=N)N)C(=O)N[C@@H](CCCNC(=N)N)C(=O)N[C@@H](C)C(=O)N[C@@H](CC(N)=O)C(N)=O)NC(=O)[C@H](C(C)C)NC(=O)[C@H](CCCNC(=N)N)NC1=O |  | ICR mice, serum | intraperitoneal, 10 mg/kg, day 5 |  | calcium | 1.38 ± 0.03 mmol/L
CCC[C@@](N)(CO)CCc1ccc(OCCCCCC(C)C)cc1 |  | C57BL/6 mice | oral, 10 mg/kg |  | oral bioavailability | 16%
S=c1oc(-c2ccccc2)nn1CN1CCN(Cc2ccccc2)CC1 |  | Wistar rat female | oral, 300 mg/kg, acute toxicity OECD 423 |  | serum ALP | 12.6 ± 1.07 KA/dL
C[C@H](NC(=O)c1c(C(F)F)nn(C)c1Oc1cccc(C(F)(F)F)c1)c1ccc(C(=O)O)cc1 |  | human, plasma | 500 mg, cycle 1 day 8, mean |  | half-life | 6.1 h
CC(C)(O)c1cc(Nc2cc(Oc3cn(C4CC4)nc3C3CCOCC3)ccn2)ccn1 | refers to: Cough | Japanese patients with advanced cancer | oral, dose not given, any grade |  | treatment-emergent adverse events | 0%
C[C@H]1COCCN1c1nc(NCc2cccnc2C(F)(F)F)c2cccnc2n1 |  | anaesthetized rat | intravenous, 30 mg/kg | baseline: control | QRS change | 17%
CCc1ccc(CC/C=C/c2ccc3c(c2)C(=O)CC3)cc1 |  | Sprague-Dawley rat, female | oral, 30 mg/kg/day, 14 days |  | TG | 0.31 mM
CO[C@H]1C[C@@H]2CC[C@@H](C)[C@@](O)(O2)C(=O)C(=O)N2CCCC[C@H]2C(=O)O[C@H]([C@H](C)C[C@@H]2CC[C@@H](OC(=O)NCCOCCOCCOCCOCCOCCOCCOCCOCCC(=O)N3CCc4cc(Cn5nc(-c6ccc7oc(N)nc7c6)c6c(N)ncnc65)ccc4C3)[C@H](OC)C2)C[C@@H](O)[C@H](C)/C=C(\C)[C@@H](O)[C@@H](OC)C(=O)[C@H](C)C[C@H](C)/C=C/C=C/C=C/1C | dose-escalation trial | patients with advanced solid tumours | intravenous, 1.6 mg/3 mg weekly, grade ≥3 |  | decreased appetite leading to dose reduction | 0%

SMILES | assay | test system | conditions | scale | quantity | result
O=S(=O)(Nc1ccccc1)c1ccc(NC(=S)Nc2ccccc2)cc1 |  | mouse, male, blood | oral, 20 mg/kg daily, 14 days |  | mean corpuscular volume | 47.5 fL
C[C@]1(CO)Cc2ncn(-c3ccc(C#N)c(Cl)c3)c2C(=O)O1 |  | human, plasma | 40 mg single dose, median |  | tmax | 1.5 h
CCCC(CCC)NC(=O)c1ccc2c(c1)OCO2 |  | Swiss albino CD-1 mice, male, bone marrow | intraperitoneal, 700 mg/kg, 36 h |  | PCE/NCE ratio | 0.9
[O-][S+]1CCc2nc(N3CCC(c4ncc(Cl)cn4)CC3)nc(NC3(CO)CCC3)c21 (centres unmarked) |  | idiopathic pulmonary fibrosis patients | 18 mg twice daily |  | Proctalgia adverse events | 10%
Cc1cccc(Cn2nc(C3CC3)c3c(NC(=O)c4cnc5cc(OCCN6CCN(C)CC6)ccn45)cccc32)n1 | CTCAE v4.03, refers to: abdominal pain | platinum-resistant ovarian cancer patients | oral, dose not given, together with: pembrolizumab IV every 3 weeks |  | all-cause adverse events | 36.4%
O=C(Nc1ccccc1)C1CCN(C(=O)Oc2cccnc2)CC1 | refers to: Vertigo | healthy female human | concentration not given, all doses pooled |  | adverse event incidence | 29%
CC(=O)c1c(C)c2cnc(Nc3ccc(C4CCN(CCS(C)(=O)=O)CC4)cn3)nc2n(C2CCCC2)c1=O |  | HR+/HER2- advanced breast cancer patients | oral, 100 mg twice daily, grade 3/4,, monotherapy |  | patients with GGT increased | 0%
CCCCCCCCCCCCCCCC(=O)N[C@@H](CCC(=O)NCCCC[C@H](NC(=O)[C@H](CC(=O)O)NC(=O)[C@H](CO)NC(=O)[C@@H](NC(=O)[C@H](Cc1ccccc1)NC(=O)[C@@H](NC(=O)CNC(=O)[C@H](CCC(N)=O)NC(=O)[C@H](CO)NC(=O)[C@@H](N)Cc1c[nH]cn1)[C@@H](C)O)[C@@H](C)O)C(=O)N[C@@H](CO)C(=O)N[C@@H](CCC(=O)O)C(=O)N[C@@H](Cc1ccc(O)cc1)C(=O)N[C@@H](CC(C)C)C(=O)N[C@@H](CC(=O)O)C(=O)N[C@@H](CO)C(=O)N[C@@H](CCC(=O)O)C(=O)N[C@@H](CCCNC(=N)N)C(=O)N[C@@H](C)C(=O)N[C@@H](CCCNC(=N)N)C(=O)N[C@@H](CC(=O)O)C(=O)N[C@@H](Cc1ccccc1)C(=O)N[C@H](C(=O)N[C@@H](C)C(=O)N[C@@H](Cc1c[nH]c2ccccc12)C(=O)N[C@@H](CC(C)C)C(=O)N[C@@H](CCC(=O)O)C(=O)N[C@@H](C)C(=O)NCC(=O)NCC(=O)O)C(C)C)C(=O)O | refers to: Nausea | humans CrCl at least 90 mL/min | subcutaneous, 100 µg single dose |  | treatment-related adverse events | 37.5%
CC(C)n1c(C2CCNCC2)nc2c([N+](=O)[O-])c(Br)c(Br)cc21 |  | patients with AML | 125 mg, fungal sinusitis |  | AE leading to discontinuation | 2%
CN1CCN(S(=O)(=O)c2cc([N+](=O)[O-])ccc2N(CCOS(C)(=O)=O)CCOS(C)(=O)=O)CC1 |  | NSG mice female, plasma | intraperitoneal, 5 mg/kg, 0.75 h |  | concentration | 80 nM
C[C@@H](NC(=O)N1C(=O)[C@H](Cc2ccnc(N)c2)[C@H]1C(=O)O)C1CCCCC1 |  | healthy adult Chinese volunteers | continuous intravenous infusion, 1.5 mg/kg/h, 5-day infusion, CTCAE 5.0 grading |  | incidence of albuminuria | 12.5%
COc1ncccc1-c1cnn2ccc(N3CCN(C(=O)OC(C)C)CC3)nc12 |  | rat, thermal hyperalgesia model, plasma | oral, 3 mg/kg, 180 min |  | free drug concentration | 7.6 nM
O=C(O)CCC(CP(=O)(O)O)C(=O)O (centres unmarked) |  | rat plasma | 8 µg/mL, freeze-thaw cycle 1 at -80 °C |  | measured concentration | 7.86 ± 0.1 µg/mL
Nc1nc2cc(-c3ccc4ncc(C(=O)N5CCOCC5)n4c3)ccc2o1 | refers to: Fatigue, any cause, all grades | patients with advanced solid tumours | dose not given |  | patients with adverse events | 44%
O=c1ccc2ncc(=O)n3c2n1C[C@H]3CN1CCC(NCc2cc3c(cn2)OCCC3)CC1 |  | healthy human volunteers | oral, 1500 mg, rifampicin cohort, together with: rifampicin 600 mg |  | incidence of device site dermatitis | 0%
Cn1cncc1-c1c(F)cncc1NC(=O)c1c(N)nn2cc(F)cnc12 |  | human patients | oral, 130 mg once daily, 21 days |  | dose-limiting toxicity upper GI haemorrhage | 0%
[Cl][212Pb][Cl] |  | athymic mice, C4-2 xenograft, urine | intravenous, 2 h, 212Pb-labelled |  | tissue uptake | 21.4 ± 14.1 %ID/g
